Measurements collected from several papers.
Cell line: HEK293

| SMILES | read-out | technique | tested at | time | with | quantity | value |
| --- | --- | --- | --- | --- | --- | --- | --- |
| CC1CCC(C(C)C)C(OC2=C(Cl)C(=O)c3ccccc3C2=O)C1 (stereo not drawn) | – | MTT | concentration not given | – | – | cytotoxicity | not toxic |
| NS(=O)(=O)c1ccc(Nc2nc3noc(-c4ccc(Cl)cc4)c3s2)cc1 | – | – | – | – | – | CC50 | 7.94 µM |
| CC1c2cc(c(O)cc2O)C(C)c2cc(c(O)cc2O)C(C)c2cc(c(O)cc2O)C(C)c2cc1c(O)cc2O (stereo not drawn) | – | MTT | – | – | – | CC50 | > 10 µM |
| COc1ccc(N=S(C)(=O)c2c[nH]c3ccc(Br)cc23)cc1 (stereo not drawn) | cytotoxicity | MTT | – | 48 h | – | IC50 | > 40 µM |
| NCC1CCN(c2nc(-c3ccncc3)nc3sc4c(c23)CCCC4)CC1 | – | WST-1 | 2.5 to 10 µM | – | TNFα | cell survival | no effect |
| COc1cc(C(=O)NS(=O)(=O)c2ccccc2C)ccc1Cc1cn(C)c2ccc(NC(=O)OC3CCCC3)cc12 | cytotoxicity | resazurin | – | 24 h | – | highest non-cytotoxic concentration | > 128 µM |
| CC[C@H](C)[C@H](NC(=O)[C@H](CC(=O)O)NC(=O)[C@H](CCC(=O)O)NC(=O)[C@@H](N)CC(N)=O)C(=O)N[C@@H](CC(=O)O)C(=O)N[C@@H](CCC(N)=O)C(=O)N[C@@H](CCSC)C(=O)N[C@@H](Cc1ccccc1)C(=O)N[C@@H](CO)C(=O)N[C@H](C(=O)N[C@@H](CC(C)C)C(=O)N[C@@H](CC(C)C)C(=O)NCC(=O)N[C@@H](CCC(=O)O)C(=O)N[C@@]1(C)CCCC=CCCC[C@@](C)(C(=O)N[C@@H](CCC(N)=O)C(=O)N[C@@H](CO)C(=O)O)NC(=O)[C@H](CC(C)C)NC(=O)[C@H](CC(C)C)NC(=O)[C@H](CC(=O)O)NC1=O)[C@@H](C)O | – | – | 40 µM | 24, 48, 72 h | – | cytotoxicity | not toxic |
| CCOC(=O)c1cnc2c([N+](=O)[O-])cc(C(F)(F)F)cc2c1NCc1ccc(F)cc1 | – | – | – | – | – | CC50 | ~9 µM |
| NS(=O)(=O)c1ccc(Nc2nc3noc(-c4cccc(O)c4)c3s2)cc1 | – | – | – | – | – | CC50 | 9.3 µM |
| Clc1ccc(COc2ccc(CNCc3ccccc3)cc2)cc1 | – | – | – | – | – | cytotoxic concentration | > 50 µM |
| C#CCS(=O)(=O)c1ccc(CCN(Cc2cc(Cl)ccc2OCCC)C(=O)Cc2ccsc2)cc1 | – | MTT | 10 µM | 4 h | – | viability reduction | 11% |
| Clc1ccc(COc2ccccc2CNCc2ccccc2)cc1 | – | – | – | – | – | cytotoxic concentration | > 12.5 µM |
| CN(c1ccccc1C(=O)Nc1ccc(S(=O)(=O)N2CCN(c3cc(C(F)(F)F)cc(Cl)n3)CC2)cc1)S(C)(=O)=O | – | – | 100 µM | 24 h | – | viability | no effect |
| N=C(N)c1ccc(-c2ccc(-c3ccc(C(=N)N)cc3)o2)cc1 | cell viability | – | – | – | – | CC50 | ~180 µM |
| Brc1ccc(COc2ccccc2CNCc2cccnc2)cc1 | – | – | – | – | – | cytotoxic concentration | > 12.5 µM |
